Results gathered from unrelated publications.
Lines come from different studies, so protocols differ.

C=CC(=O)Nc1cccc(-n2nc3c(=O)[nH]nc(N)c3c2-c2oc3ccc(C)cc3c2C)c1
remaining compound (BALB/c nude mouse, whole blood; 1 µM, 2 h, 37 °C): 47.8%

CC[C@H](C)[C@@H]1NC(=O)[C@@](C)(NC(=O)[C@H](CCCNC(=N)N)NC(=O)[C@H](CC(C)C)NC(=O)[C@@H](NC(=O)[C@H](CCC(N)=O)NC(=O)[C@H](CC(C)C)NC(C)=O)[C@@H](C)O)CCCC=CCCC[C@@](C)(C(=O)N[C@@H](CC(C)C)C(=O)N[C@@H](Cc2ccc3ccccc3c2)C(N)=O)NC(=O)[C@H](CCCNC(=N)N)NC(=O)[C@H](CCC(N)=O)NC1=O
remaining compound (LC-MS; BALB/c nude mouse, plasma; 2 µM, 0.75 h): 85.8%

CC(C)[N+](C)(CCOC(=O)C1c2ccccc2Oc2ccccc21)C(C)C
remaining compound (mouse, CD-1, both sexes, whole blood; 5 µM, 30 min): 72.2%

CCN(CC)CCOC(=O)c1ccc(N)cc1
remaining compound (LC-MS; BALB/c nude mouse, plasma; 2 µM, 0.25 h): 8.48%

Cc1cccc(CNC(=O)c2cn(CCNC(=O)c3ccccc3Sc3c([N+](=O)[O-])ncn3C)c3cc4c(cc3c2=O)OCO4)n1
remaining compound (LC-MS/MS; CD-1 mouse, whole blood; 1 µM, 0.5 h): 100%

NCc1cc2c(cc1F)C(=O)N(C1CCC(=O)NC1=O)C2 (centres unmarked)
remaining compound (male CD-1 mouse, whole blood; 3 h): > 95%

C/C=C/C(=O)Nc1ccc(-n2nc3c(=O)[nH]nc(N)c3c2-c2oc3ccc(C)cc3c2C)cc1
remaining compound (BALB/c nude mouse, whole blood; 1 µM, 2 h, 37 °C): 92%

CC[N+]1(C)CCN(c2ccc(NC(=O)c3cccc(C)n3)cc2)CC1
remaining compound (BALB/c mouse, pooled mouse plasma; 1 µM, 60 min): 102%

For quick reference, copied from above:
NCc1cc2c(cc1F)C(=O)N(C1CCC(=O)NC1=O)C2 (centres unmarked)
remaining compound (male CD-1 mouse, whole blood; 3 h): > 95%
